Measurements of several laboratories.
Every numbered part comes from another study and shows a few of its results, in no order. Substitutions count along the parent as printed.

Sample 1 — method: RNAcompete; molecule type: RNA; matrix: in vitro; tested at: 20 nM; notes: 7-mer, probes averaged, single round; baseline: mean of 7-mers; reading: higher = stronger binding
Target: PABPC1L2, full length, GST fusion (mouse, UniProt A0ABA7IW68)
Residues (chain): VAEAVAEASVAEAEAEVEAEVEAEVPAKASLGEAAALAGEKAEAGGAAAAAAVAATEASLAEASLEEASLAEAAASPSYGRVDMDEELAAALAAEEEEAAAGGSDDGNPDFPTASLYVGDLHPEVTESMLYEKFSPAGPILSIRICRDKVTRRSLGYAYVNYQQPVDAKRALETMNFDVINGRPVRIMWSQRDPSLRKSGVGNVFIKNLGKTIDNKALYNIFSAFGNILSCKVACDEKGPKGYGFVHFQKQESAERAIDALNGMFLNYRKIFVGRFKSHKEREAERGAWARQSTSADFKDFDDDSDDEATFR
Strand | 7-mer Z-score
UCCCUGA | -0.304
UACGAAC | -0.18
GAAUGCU | -0.162
AAGGUUG | 0.135
UCGCAAG | -0.364
GAGUUAC | -0.273
AACGAUU | 0.0315
GGCACAC | 0.00436
GAGGUUA | -0.0101
GACUUUU | -0.235
GGGUGAA | 0.227
GGUCGAA | 0.153
UCCUACA | -0.336
AAUAAAU | 3.32
AGUUUAG | -0.184
UGAACGA | -0.0409
GGAGCCU | -0.144
GGCUAAG | 0.0623

Sample 2 — method: protein binding microarray; molecule type: double-stranded DNA, one strand shown; matrix: in vitro; tested at: not given; baseline: not given; reading: higher = stronger binding
Target: Histone acetyltransferase KAT6A, winged helix 2, GST fusion (KAT6A, Homo sapiens, UniProt Q92794, residues 85-181)
Notes: 8-mer, flanks averaged, mean of 2 arrays, mostly near background
Residues (chain): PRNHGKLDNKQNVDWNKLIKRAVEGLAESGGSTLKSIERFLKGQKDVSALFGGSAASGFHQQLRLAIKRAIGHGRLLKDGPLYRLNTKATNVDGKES
Strand | E-score
AATGCGAG | 0.103
AGTCGGTA | -0.0183
AGAGGAAG | -0.0322
AACCAAAA | 0.121
ATTCACAA | -0.0155
ACGGCCGT | 0.0372
CCGTACCG | 0.0407
ACTTAAAT | -0.0837
CCGCTATC | 0.149
GAGCCCAA | -0.0965
TAACTGGA | -0.0512
AGTTAACC | -0.0223
AGTTTGCG | 0.103
AGGTCCCA | -0.0369
AATGCCGG | 0.144
ACCCCGTC | 0.015
GGGCTGAC | 0.0425
CGTGAACA | 0.0248
GGGTAACC | -0.00449
CGTCCCTC | 0.04
TAAACACA | 0.0351
AACCAGTC | -0.0659
CGCACTAA | 0.16
ACTCGCTA | -0.0358
CTAGGCCA | -0.0778

Sample 3 — method: protein-binding microarray; molecule type: double-stranded DNA, one strand shown; matrix: in vitro; tested at: 2540 nM top; notes: 60-bp whole probe; added: salmon DNA 0.4 mg/ml; baseline: random background probes; reading: higher = stronger binding; constant ends, left off below: GCCTAGCAC … GTCTTGATTCGCTTGACGCTGCTG
Target: Interferon regulatory factor 3, full length, phosphomimetic (IRF3, Homo sapiens, UniProt Q14653, residues 1-427, S386D/S396D/S398D/S402D/T404D/S405D)
Target sequence (chain): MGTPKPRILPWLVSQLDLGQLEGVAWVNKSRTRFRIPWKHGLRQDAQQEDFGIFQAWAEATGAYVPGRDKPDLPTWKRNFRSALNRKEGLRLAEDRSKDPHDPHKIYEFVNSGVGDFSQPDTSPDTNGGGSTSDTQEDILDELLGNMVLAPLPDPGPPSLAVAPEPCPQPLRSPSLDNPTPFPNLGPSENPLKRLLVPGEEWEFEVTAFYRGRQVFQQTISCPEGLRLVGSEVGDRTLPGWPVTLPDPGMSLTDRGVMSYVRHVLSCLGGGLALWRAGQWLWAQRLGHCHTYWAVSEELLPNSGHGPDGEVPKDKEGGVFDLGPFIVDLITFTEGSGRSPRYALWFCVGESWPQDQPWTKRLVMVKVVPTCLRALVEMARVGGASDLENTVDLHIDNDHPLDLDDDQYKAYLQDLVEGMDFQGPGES
Strand | fitted relative affinity [z-score]
TTAGGACTGGGTATCGCTTAGTGCTAG | -0.396
GACAAACTGAGTATCGAGACGTGCTAG | -0.0215
TTAGGACTGGGGGATCGGTTAGTGCTA | -0.39
CAAGTTACCCACCTCAGGTAGTGCTAG | 2.39
TCAGCTTTCTTTACCACACTGTGCTAG | 1.48
GACGGTTTCGGGTATCGGGTCGTGCTA | 4.49
TCATTTTTATTTTCTGAACTGTGCTAG | 3.21
TCAAGAAAGAAAACGGGGAGGTGCTAG | -0.267
TTAGGTTCCGGGTTCGGTTAGTGCTAG | 1.99
TCCCTATTATATATATCATAGTGCTAG | 1.84
GACGGTATCGACTATCGGGTCGTGCTA | 0.673
GACGATTTCAATCTCGAGACGTGCTAG | 2.08
TCATGTCTCTGTCCCTGACTGTGCTAG | 0.199
TTAGAACTGAGGATCGATTAGTGCTAG | -0.321
TTAGGTATCCTTCTCCTTTCGTGCTAG | 7.44
TTAGGACTGGACTATCGGGTAGTGCTA | -0.54
TTAGGTATCGTTATCGGTTAGTGCTAG | 3.11
TTAGGGCTGGACTATCGGTTAGTGCTA | -0.814
CCTATTATATATATCATAAGGTGCTAG | 1.89

Sample 4 — method: DHFR PCA, deep sequencing; matrix: yeast; added: (+)-ABA 0.11 µM; baseline: wild-type fitted maximum; reading: higher = stronger binding
Target: ABI1, truncated, D143A, DHFR fusion (Arabidopsis thaliana)
Notes: methotrexate growth selection, single substitutions
Starting sequence: PYL1, truncated, DHFR fusion (Arabidopsis thaliana); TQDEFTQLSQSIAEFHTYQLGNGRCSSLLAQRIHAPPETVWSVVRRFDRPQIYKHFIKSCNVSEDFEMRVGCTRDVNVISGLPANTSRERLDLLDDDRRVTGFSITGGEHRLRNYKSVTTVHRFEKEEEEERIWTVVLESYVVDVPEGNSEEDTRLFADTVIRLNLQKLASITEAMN
Change | relative binding score [%]
E67W | -3.99
L93N | -7.02
E139S | -1.45
E67F | 3.14
V136E | -7.14
E129D | 55.4
D3V | 15.3
Y18S | 3.46
S26Q | 4.38
L166P | 14.7
F56D | -5.38
K126T | 57.8
V76E | 0.0461
R132K | 55.7
V70C | -1.29

Sample 5 — target: CCNB1, cyclin fold, Cln2 fusion (human); method: yeast growth competition, sequencing; matrix: yeast; notes: strong parent motif; baseline: not given; reading: higher = stronger binding
Starting sequence: BRCA2 docking peptide (human); PSIKRNLLNEFDR
Change | normalised enrichment score
PSIKRNLLNEFDN [R13N] | 3.11
PSIKRDLLNEFDR [N6D] | 1.15
PSIKRNLLNEADR [F11A] | 1.52
PSIKLNLLNEFDR [R5L] | 0.383
PSIKRNLLGEFDR [N9G] | 2.17
PSIKRNLFNEFDR [L8F] | 2.67
PSIKRNLLNEFDD [R13D] | 3.21
PSIKRNLLNEHDR [F11H] | -0.0377
PSIKRNLLNEFAR [D12A] | 1.89
PSIKRNLLNEEDR [F11E] | 0.0551
PSIKRNLVNEFDR [L8V] | 1.35
PIIKRNLLNEFDR [S2I] | 0.458
PSIPRNLLNEFDR [K4P] | 0.403
PNIKRNLLNEFDR [S2N] | 2
PSIKRNLLNEFCR [D12C] | 1.57
PKIKRNLLNEFDR [S2K] | 1.98
YSIKRNLLNEFDR [P1Y] | 2.61
PSIKRNLPNEFDR [L8P] | -0.38
PSRKRNLLNEFDR [I3R] | 0.0515
PSIKRNLLCEFDR [N9C] | 2.02
PSIKINLLNEFDR [R5I] | 1.87
PSIKRNLLNEPDR [F11P] | -0.281
PSIKRNLLQEFDR [N9Q] | 2.69
PGIKRNLLNEFDR [S2G] | 1.28
PSIKRNLYNEFDR [L8Y] | 1.61

Some of these lines once more (sample 2):
Strand | E-score
AGTTTGCG | 0.103
GGGTAACC | -0.00449
ACTTAAAT | -0.0837
CCGCTATC | 0.149
AGAGGAAG | -0.0322
AATGCGAG | 0.103
AGTTAACC | -0.0223
ACCCCGTC | 0.015
